Results of several laboratories.
Each numbered part is a random draw from the data of one study; scales do not carry over between parts.

Sample 1 — technique: protein-binding microarray; molecule type: double-stranded DNA, one strand shown; medium: in vitro; tested at: 2200 nM top; setting: 60-bp whole probe; added: salmon DNA 0.4 mg/ml; reference: random background probes; reading: higher = stronger binding; all sequences stand within: GCCTAGCAC … GTCTTGATTCGCTTGACGCTGCTG
Target: Interferon regulatory factor 7, full length, phosphomimetic (IRF7, Homo sapiens, UniProt Q92985, residues 1-503, S471D/S472D/S475D/S476D/S477D/S483D/S484D/S487D)
UniProt Q92985, sequence (whole entry, unmodified, looked up): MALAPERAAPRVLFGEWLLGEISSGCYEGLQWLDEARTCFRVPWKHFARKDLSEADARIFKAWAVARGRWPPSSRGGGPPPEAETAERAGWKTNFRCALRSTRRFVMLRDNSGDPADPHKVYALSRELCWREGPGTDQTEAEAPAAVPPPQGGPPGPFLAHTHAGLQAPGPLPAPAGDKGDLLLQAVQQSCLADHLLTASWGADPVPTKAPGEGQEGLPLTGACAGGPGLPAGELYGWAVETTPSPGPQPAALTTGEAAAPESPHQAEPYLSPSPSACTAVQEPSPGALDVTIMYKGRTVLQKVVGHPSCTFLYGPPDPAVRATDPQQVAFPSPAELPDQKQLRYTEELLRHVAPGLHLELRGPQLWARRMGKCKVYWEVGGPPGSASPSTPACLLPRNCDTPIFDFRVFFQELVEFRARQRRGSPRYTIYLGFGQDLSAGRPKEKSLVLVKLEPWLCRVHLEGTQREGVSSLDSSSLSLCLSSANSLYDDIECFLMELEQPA
Under “fitted relative affinity”, `GACGATTTCACACTGGAGACGTGCTAG` is recorded as 0.904 z-score.
For `TCAAGCATGGATCTGGGACTGTGCTAG`, “fitted relative affinity” read -0.215 z-score.
Under “fitted relative affinity”, `TCAGTTGTACTTTCTATCACTGTGCTA` is recorded as 2.21 z-score.
`GACGGTATCGGGACTGGGGGCGTGCTA`: “fitted relative affinity” 0.0141 z-score.
`GGTGTTTTCTAAACCATTGTGTGCTAG`: “fitted relative affinity” 1.33 z-score.

Sample 2 — technique: RNA Bind-n-Seq; molecule type: RNA; medium: in vitro; tested at: 200 nM; setting: whole 134-nt RNA, ends assumed; added: 150 mM LiCl; reference: input library; reading: higher = stronger binding; library: 7-deaza-guanosine replaces G
Target: Fragile X messenger ribonucleoprotein 1, C-terminal low-complexity region (Fmr1, Mus musculus, UniProt P35922)
With `GGGAGUUCUACAGUCCGACGAUCAAGUCCUGUGCUACACAUCGUAUGUACCGAAUCGGGGCCCCGGGCCCCGGCCCCGGAAAGUAUUAUGUUACGCCGUUCGGAUCUGCACUUUGGAAUUCUCGGGUGUCAAGG` the log2 enrichment was -3.2.
With `GGGAGUUCUACAGUCCGACGAUCCCUGUGCUACACAUCGUAUGUACCGAAUCGGUUUUUUUGGGUUUUUUUGGUUUUUUUGGGGAAAGUAUUAUGUUACGCCGUUCGGAUCUGUGGAAUUCUCGGGUGUCAAGG` the log2 enrichment was -0.633.
With `GGGAGUUCUACAGUCCGACGAUCAUCAUUUCAUUUUUAUAAUUAUACAUUAGACAUUGGCACUUGUGUAAAACUGUCCCUGCAGAUUGAGCAGGAAGUAAAAACAAAUGGAAAUGGAAUUCUCGGGUGUCAAGG` the log2 enrichment was -1.19.

Sample 3 — technique: RNA Bind-n-Seq; molecule type: RNA; medium: in vitro; tested at: 365 nM; reference: no-protein control; reading: higher = stronger binding
Target: RNA binding protein fox-1 homolog 2, RRM domain, GST-SBP tag (RBFOX2, Homo sapiens, UniProt O43251-10, residues 100-194)
Setting: natural RNA segment, single round, ends assumed
Residues (chain): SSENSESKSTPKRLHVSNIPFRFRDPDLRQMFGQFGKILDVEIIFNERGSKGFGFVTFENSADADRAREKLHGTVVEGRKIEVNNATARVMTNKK
`GGGAGUUCUACAGUCCGACGAUCUGGUUUAUUGGAACAUGUAAUAAAUAGGAGUAGUGAUGUAUUAAAACACAAGUAUUCAUUAAUGUUUUAUAUCUUCACUAAAAUUCUAUAGUUAUGAAACUAUCAAUCAAUGGAAUUCUCGGGUGCCAA`: “RBNS enrichment (R)” 0.515.
`GGGAGUUCUACAGUCCGACGAUCUUUCCCUAGAGGCAAACAUUUCUUAAAAUGUUUCAUUUUCAUUAAAAAUGAAAGCCAAAUUUAUAUGCCACCGAUUGCAGGACACAAGCACAGUUUUAAGAGUUGUAUGAUGGAAUUCUCGGGUGCCAA`: “RBNS enrichment (R)” 1.
`GGGAGUUCUACAGUCCGACGAUCCACUAUUACCCAACCAUGAAGCCACCCAAGUAGUGGAGCCAGGACAUAAGUUAUUGUUCACAUUAAAGAAUCAUGUUCCCUGUGUACAUUUUAAGCAAAGGAAAAGUCUUUGGAAUUCUCGGGUGCCAA` — result for “RBNS enrichment (R)”: 0.324.

Other studies, line by line
The fold induction of `PhoQ, residues 284 288 289 292 302 303 TVTVVA` is reported as 11.2 (PhoP, residues 12 14 15 18 19 FWNTL (Escherichia coli, UniProt P23836); Sort-seq, item: YFP reporter; E. coli; PhoQ-PhoP variant library, added: 10 µM Mg2+; reference: high Mg2+ state, higher = stronger signaling).

Some of these lines once more (sample 1):
`GGTGTTTTCTAAACCATTGTGTGCTAG`: “fitted relative affinity” 1.33 z-score.
